Measurements collected from several papers.
Numbered parts are unrelated; each lists some results of a single study.

Block 1
Target: Prothrombin, mature alpha-thrombin (F2, Homo sapiens, UniProt P00734)
Technique: aptamer microarray, sandwich
Form: DNA with 2'F-ANA
Sample: in vitro
Tested at: 200 nM
Notes: whole 15-mer aptamer, many near background
With: Cy3 exosite-II aptamer, 400 nM
Direction: higher = stronger binding
Strand: GGTTGGTGTGGTTGG
For `2'F-ANA at 3 5 9 13 15`, “mean fluorescence intensity” read 94 a.u.
`2'F-ANA at 2 4 5 6 8 9 11 14 15`: “mean fluorescence intensity” 50.3 a.u.
Under “mean fluorescence intensity”, `2'F-ANA at 1 2 3 5 11 13 14` is recorded as 47.9 a.u.
`2'F-ANA at 2 3 5 7 8 9 12 13`: “mean fluorescence intensity” 184 a.u.
Under “mean fluorescence intensity”, `2'F-ANA at 2 4 5 10 11 13 15` is recorded as 44.8 a.u.
Under “mean fluorescence intensity”, `2'F-ANA at 1 3 4 5 8 12 14 15` is recorded as 48.5 a.u.
`2'F-ANA at 6 7 9 11 14 15` — result for “mean fluorescence intensity”: 143 a.u.
`2'F-ANA at 2 3 4 5 6 8 9 12 15` — result for “mean fluorescence intensity”: 176 a.u.
For `2'F-ANA at 6 7 9 11 12 13 15`, “mean fluorescence intensity” read 412 a.u.
`2'F-ANA at 4 8 9 10 12 14 15`: “mean fluorescence intensity” 90.1 a.u.
Under “mean fluorescence intensity”, `2'F-ANA at 4 5 8 9 11 13 15` is recorded as 50.7 a.u.
`2'F-ANA at 1 2 3 4 6 7 8 10 13 15` — result for “mean fluorescence intensity”: 83.9 a.u.
`2'F-ANA at 1 2 3 7 12 13` — result for “mean fluorescence intensity”: 407 a.u.
Under “mean fluorescence intensity”, `2'F-ANA at 1 2 5 6 9 10 11 12 13` is recorded as 49.4 a.u.
`2'F-ANA at 4 8 10 13 14`: “mean fluorescence intensity” 63.7 a.u.
`2'F-ANA at 1 3 6 7 8 14 15` — result for “mean fluorescence intensity”: 99.8 a.u.

Block 2
Target: Sal-like protein 4, full length isoform B (SALL4, Homo sapiens, UniProt Q9UJQ4-2, residues 1-616)
Technique: universal PBM
Form: double-stranded DNA, one strand shown
Sample: in vitro
Tested at: not given
Notes: 8-mer, flanks averaged, mean of replicates
Direction: higher = stronger binding
Target sequence (chain): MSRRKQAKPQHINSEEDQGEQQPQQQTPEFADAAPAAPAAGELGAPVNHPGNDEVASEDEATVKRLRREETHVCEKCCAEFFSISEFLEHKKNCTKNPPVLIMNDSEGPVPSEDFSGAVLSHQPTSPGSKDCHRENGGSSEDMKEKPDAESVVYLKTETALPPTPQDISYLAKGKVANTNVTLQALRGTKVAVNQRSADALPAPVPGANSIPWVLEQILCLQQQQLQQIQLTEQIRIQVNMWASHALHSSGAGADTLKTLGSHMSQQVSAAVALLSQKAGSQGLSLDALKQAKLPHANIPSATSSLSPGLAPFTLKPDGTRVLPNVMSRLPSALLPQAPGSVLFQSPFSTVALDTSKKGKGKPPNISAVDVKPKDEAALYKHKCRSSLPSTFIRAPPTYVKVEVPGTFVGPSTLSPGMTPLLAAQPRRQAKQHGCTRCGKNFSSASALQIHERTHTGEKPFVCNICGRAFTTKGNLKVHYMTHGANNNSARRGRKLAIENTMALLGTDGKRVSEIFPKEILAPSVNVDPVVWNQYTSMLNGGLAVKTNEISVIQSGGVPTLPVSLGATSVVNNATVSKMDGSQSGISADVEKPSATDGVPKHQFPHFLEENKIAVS
With `CCCCTTAC` the E-score was -0.1.
For `AACACCTA`, the E-score was 0.0643.
`CCTATCTA` gave an E-score of 0.0762.
`CCTCTAAA` gave an E-score of -0.0628.
For `CGGTTTCA`, the E-score was -0.0611.
For `AGCTCGTG`, the E-score was -0.164.
`GCCCGATA` gave an E-score of -0.0645.
For `ATGCGATC`, the E-score was -0.0343.
`CCCTAGTA` has an E-score of 0.0227.
`GACCATCC` gave an E-score of -0.0897.
With `AAGCTGTA` the E-score was 0.227.
`GCTACTTA` gave an E-score of 0.0423.
For `GATCTACC`, the E-score was -0.116.
`ACCATTAG` has an E-score of 0.154.
`ACAAGGGG` has an E-score of -0.225.
`ACTATCAG` has an E-score of -0.00782.
The E-score of `TAAGTTCA` is reported as 0.137.
`ATCATTAG` has an E-score of 0.204.
`CGAAGAAA` gave an E-score of 0.112.
`CCCAAGGC` has an E-score of -0.206.
`GATGGGGC` gave an E-score of -0.193.
`ACTACTAG` has an E-score of 0.0803.
The E-score of `AGAGCGAA` is reported as -0.0717.
`AGTCTCTA` has an E-score of 0.0254.
For `AACACTGT`, the E-score was 0.0884.

Block 3
Target: RNA binding protein fox-1 homolog 2, RRM domain, GST-SBP tag (RBFOX2, Homo sapiens, UniProt O43251-10, residues 100-194)
Technique: RNA Bind-n-Seq
Form: RNA
Sample: in vitro
Tested at: 365 nM
Notes: natural RNA segment, single round, ends assumed
Relative to: no-protein control
Direction: higher = stronger binding
Residues (chain): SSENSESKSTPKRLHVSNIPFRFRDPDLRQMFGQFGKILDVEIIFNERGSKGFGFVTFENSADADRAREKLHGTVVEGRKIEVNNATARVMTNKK
Under “RBNS enrichment (R)”, `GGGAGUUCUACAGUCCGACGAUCAUGGUAUUUCAUUAAACUGUUGCAUACCCAGUUAGCACAGUAGGUGGGGAGUCUGCUUCAUUUCUAUCAUUCCAUUUUUCUGAUUAAACUGUCAAAUCUGUCAUUGCAUAUGGAAUUCUCGGGUGCCAA` is recorded as 0.852.
`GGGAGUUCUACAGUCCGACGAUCCAGCACAACAAAUUAAAACAACUCAUGCCACAGUAUGUUGUCUUCAUGUGUCUUGCAAUGAACUGUUUCAGUAGCCAAUCCUCUUAGUAUAUGAAAGGACAGGGAUUUUUUGGAAUUCUCGGGUGCCAA`: “RBNS enrichment (R)” 0.462.
`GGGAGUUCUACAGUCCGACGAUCUCUGGCCCAGUGAGCAGCUCAGCCCACGUGACCUUUGGGUUGUAGAAAUAAAGUGCAUGAACUGUUCUCUGCUAUAUCCUAGUCUCCCACACAGUGCGAGUCGGAGUGAGUGGAAUUCUCGGGUGCCAA` — result for “RBNS enrichment (R)”: 2.7.
`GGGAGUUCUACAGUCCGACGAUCUGAAGCCAACACCAAAAGAGGGAGCACACCUGUUCCCUACCUCCUGGAAGUGGAGCCAAGUUUCAGGAUUUGCAUCCCAAGAGUCUCUAAGAAUUCUUGCCAUGGUCCUAUGGAAUUCUCGGGUGCCAA`: “RBNS enrichment (R)” 0.539.
For `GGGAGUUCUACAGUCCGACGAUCAAAAACCUUUCAGGAAGUCAAUGAUUUCUGUGAUUGAUAUAAUUCUAAGGUGUCUGAGAGCAGGUACAGAAUAGGAACUUCAGAGGCUUUGUUUAAACGCAAAGCUUUGUUGGAAUUCUCGGGUGCCAA`, “RBNS enrichment (R)” read 0.26.
`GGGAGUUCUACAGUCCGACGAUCAGACCUUUCCCUCUCCCUGCCCCUAGAACAACCAGUAUUAGAAGGUGCCACCAUUGGUGCUGCCUUCUCUUCCCACAGCCUGUAACUCAGUGUUUUGUACUUCACUGAAUUGGAAUUCUCGGGUGCCAA`: “RBNS enrichment (R)” 0.479.
`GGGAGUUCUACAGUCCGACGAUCCAGAGGAGUGUGAAUGUGUGUUUGUUGCUGGCUGAAUGGCAAUAGAUGUCUAAGGUGGAUUCAGUGUCUGGCACACUGAGACACCUCCAAGAAGGAGAUUGAUGCAUCAGUGGAAUUCUCGGGUGCCAA`: “RBNS enrichment (R)” 5.25.
`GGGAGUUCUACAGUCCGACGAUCCCAGGAGGCCAGGGUGGUGGUGCUGCUAGGCCAUCCCAAUGUUAGGCUUGUGGGUGAUUCCCCGGGCCUUUUCAUUCAAGCUGCACACAAUGAGUCAUUAAAGUUUGUCAUGGAAUUCUCGGGUGCCAA` — result for “RBNS enrichment (R)”: 1.16.

Block 4
Target: Ras GTPase-activating protein-binding protein 1, full length (G3BP1, Homo sapiens, UniProt Q13283)
UniProt Q13283, sequence (whole entry, looked up): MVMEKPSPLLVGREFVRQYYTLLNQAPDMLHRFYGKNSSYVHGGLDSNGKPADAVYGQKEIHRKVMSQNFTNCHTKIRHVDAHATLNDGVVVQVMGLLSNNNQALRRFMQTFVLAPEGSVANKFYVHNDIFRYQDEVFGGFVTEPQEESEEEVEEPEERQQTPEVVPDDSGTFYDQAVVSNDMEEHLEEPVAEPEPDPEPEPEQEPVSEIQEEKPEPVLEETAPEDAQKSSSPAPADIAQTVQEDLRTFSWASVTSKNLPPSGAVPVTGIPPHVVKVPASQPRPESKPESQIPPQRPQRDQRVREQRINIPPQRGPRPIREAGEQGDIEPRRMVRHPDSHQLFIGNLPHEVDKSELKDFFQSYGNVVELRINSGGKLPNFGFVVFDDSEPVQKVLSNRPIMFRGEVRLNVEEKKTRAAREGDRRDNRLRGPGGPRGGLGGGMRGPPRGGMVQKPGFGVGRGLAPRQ
Technique: RNA Bind-n-Seq
Form: RNA
Sample: in vitro
Tested at: 200 nM
Notes: whole 134-nt RNA, ends assumed
With: 150 mM KCl
Relative to: input library
Direction: higher = stronger binding
With `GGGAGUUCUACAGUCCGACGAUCUGGCCCUGGUGGCAUGCGGGGAGGAAGAGGUGGCCUCAUGGAUGGUGGUGGUCCCGGUGGAAUGUUCAGAGGUGGCCGUGGUGGAGACAGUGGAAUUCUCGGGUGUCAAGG` the log2 enrichment was 0.526.
For `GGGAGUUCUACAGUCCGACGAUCAAGUCCUGUGCUACACAUCGUAUGUACCGAAUCGGGUGGGUUUGGGUUUUUUUGGGAAAGUAUUAUGUUACGCCGUUCGGAUCUGCACUUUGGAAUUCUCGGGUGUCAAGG`, the log2 enrichment was 0.0417.
With `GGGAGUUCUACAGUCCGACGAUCUUUGUAGAGCAGCCCGACGGCCAUGGAGGCUGAAGAGACGAUGGAAUGCCUUCAGGAGUUCCCUGAACAUCAUAAAAUGAUCCUCGACCGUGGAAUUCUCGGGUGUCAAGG` the log2 enrichment was -0.354.
For `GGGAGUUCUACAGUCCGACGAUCGCAGGAAGUAAAAACAAAUGGAAAUGCUUGGGAUAGUGGCAGGGGUGGGGGUUGCUAAGGAAAGGGUGGGAUGGGAGUGGGUAAAGAGUUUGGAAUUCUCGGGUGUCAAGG`, the log2 enrichment was 0.777.
With `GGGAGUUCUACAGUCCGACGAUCCAAGUCCUGUGCUACACAUCGUAUGUACCGAAUCGGGAAAGGGUGGGUUUUUGGGAAAGUAUUAUGUUACGCCGUUCGGAUCUGCACUUCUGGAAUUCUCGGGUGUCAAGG` the log2 enrichment was 0.578.
`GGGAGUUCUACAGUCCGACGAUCUCAAGUCCUGUGCUACACAUCGUAUGUACCGAAUCGGAGGUUUGGUUUUUUUGGAAAGUAUUAUGUUACGCCGUUCGGAUCUGCACUUCCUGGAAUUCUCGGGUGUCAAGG` gave a log2 enrichment of -0.673.
For `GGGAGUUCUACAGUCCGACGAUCAUUAUAGACUUGAUCAAAACACAGGAAAAGGCAACUCCCAGGAACUUUCCGCCACGAUUCCAGGAUGGAUAUUACAGCUGACAGCUUUUCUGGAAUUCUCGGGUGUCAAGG`, the log2 enrichment was -0.279.
For `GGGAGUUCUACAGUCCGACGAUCUCCUGUGCUACACAUCGUAUGUACCGAAUCGGGGCCCCCGGCCCCCGGGGCCCCCGGGGAAAGUAUUAUGUUACGCCGUUCGGAUCUGCAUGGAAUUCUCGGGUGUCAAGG`, the log2 enrichment was -0.889.
For `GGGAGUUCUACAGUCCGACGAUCAGUCCUGUGCUACACAUCGUAUGUACCGAAUCGGCCCCCGGGCCCCCGGGCCCCCGGGAAAGUAUUAUGUUACGCCGUUCGGAUCUGCACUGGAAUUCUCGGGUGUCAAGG`, the log2 enrichment was -1.32.

Repeated from above (block 1):
Under “mean fluorescence intensity”, `2'F-ANA at 2 4 5 10 11 13 15` is recorded as 44.8 a.u.
Under “mean fluorescence intensity”, `2'F-ANA at 1 3 4 5 8 12 14 15` is recorded as 48.5 a.u.
`2'F-ANA at 6 7 9 11 14 15` — result for “mean fluorescence intensity”: 143 a.u.
`2'F-ANA at 2 3 4 5 6 8 9 12 15` — result for “mean fluorescence intensity”: 176 a.u.
